{"data": "Assay results gathered from unrelated publications", "note": "Each numbered part is a random draw from the data of one study; scales do not carry over between parts. Values joined by “and” are separate records of one study, mostly repeats; a detail may differ. Substitutions count along the parent as printed.", "chain of UniProt P10721 (whole entry, unmodified, looked up)": "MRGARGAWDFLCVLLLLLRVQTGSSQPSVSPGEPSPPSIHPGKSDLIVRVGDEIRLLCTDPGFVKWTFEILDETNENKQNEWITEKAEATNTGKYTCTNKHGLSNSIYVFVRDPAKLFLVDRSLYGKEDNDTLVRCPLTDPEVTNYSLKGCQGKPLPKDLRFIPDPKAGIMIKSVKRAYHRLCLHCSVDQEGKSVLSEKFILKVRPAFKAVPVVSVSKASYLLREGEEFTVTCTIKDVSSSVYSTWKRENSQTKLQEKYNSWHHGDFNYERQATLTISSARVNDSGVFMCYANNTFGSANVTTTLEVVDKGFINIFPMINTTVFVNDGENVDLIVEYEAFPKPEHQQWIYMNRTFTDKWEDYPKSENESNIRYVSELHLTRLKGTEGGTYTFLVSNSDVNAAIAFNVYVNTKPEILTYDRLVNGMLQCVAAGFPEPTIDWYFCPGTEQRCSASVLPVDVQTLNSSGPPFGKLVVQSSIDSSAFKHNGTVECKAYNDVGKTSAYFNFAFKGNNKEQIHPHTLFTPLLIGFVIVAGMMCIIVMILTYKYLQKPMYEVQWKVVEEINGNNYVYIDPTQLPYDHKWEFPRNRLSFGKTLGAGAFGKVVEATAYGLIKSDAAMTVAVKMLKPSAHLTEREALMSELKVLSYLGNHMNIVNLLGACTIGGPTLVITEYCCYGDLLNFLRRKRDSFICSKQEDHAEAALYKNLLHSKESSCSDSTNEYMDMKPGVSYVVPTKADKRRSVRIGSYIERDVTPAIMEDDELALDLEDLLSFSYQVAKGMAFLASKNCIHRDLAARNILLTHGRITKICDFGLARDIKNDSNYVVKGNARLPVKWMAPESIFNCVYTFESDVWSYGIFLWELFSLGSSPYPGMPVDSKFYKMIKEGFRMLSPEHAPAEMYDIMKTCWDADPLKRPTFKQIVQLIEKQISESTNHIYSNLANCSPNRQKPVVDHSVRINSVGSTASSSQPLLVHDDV", "chain of UniProt O60331 (whole entry, looked up)": "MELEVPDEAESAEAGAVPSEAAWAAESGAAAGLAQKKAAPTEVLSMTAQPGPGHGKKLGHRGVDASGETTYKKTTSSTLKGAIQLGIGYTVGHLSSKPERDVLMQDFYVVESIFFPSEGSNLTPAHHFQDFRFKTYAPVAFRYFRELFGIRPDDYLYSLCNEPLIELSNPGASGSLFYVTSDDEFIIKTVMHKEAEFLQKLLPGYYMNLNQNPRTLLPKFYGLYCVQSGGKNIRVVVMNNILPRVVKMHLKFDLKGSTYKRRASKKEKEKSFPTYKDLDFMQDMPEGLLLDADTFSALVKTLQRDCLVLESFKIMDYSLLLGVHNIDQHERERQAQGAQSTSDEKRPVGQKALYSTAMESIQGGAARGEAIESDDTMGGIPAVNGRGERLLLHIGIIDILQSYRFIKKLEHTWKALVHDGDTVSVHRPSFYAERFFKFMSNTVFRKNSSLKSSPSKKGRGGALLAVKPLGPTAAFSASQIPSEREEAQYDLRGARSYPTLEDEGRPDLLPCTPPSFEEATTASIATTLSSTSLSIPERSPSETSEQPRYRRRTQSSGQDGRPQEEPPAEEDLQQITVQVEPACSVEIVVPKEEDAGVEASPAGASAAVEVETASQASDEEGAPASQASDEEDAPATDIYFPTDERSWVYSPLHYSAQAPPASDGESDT", "chain of UniProt P42336 (whole entry, unmodified, looked up)": "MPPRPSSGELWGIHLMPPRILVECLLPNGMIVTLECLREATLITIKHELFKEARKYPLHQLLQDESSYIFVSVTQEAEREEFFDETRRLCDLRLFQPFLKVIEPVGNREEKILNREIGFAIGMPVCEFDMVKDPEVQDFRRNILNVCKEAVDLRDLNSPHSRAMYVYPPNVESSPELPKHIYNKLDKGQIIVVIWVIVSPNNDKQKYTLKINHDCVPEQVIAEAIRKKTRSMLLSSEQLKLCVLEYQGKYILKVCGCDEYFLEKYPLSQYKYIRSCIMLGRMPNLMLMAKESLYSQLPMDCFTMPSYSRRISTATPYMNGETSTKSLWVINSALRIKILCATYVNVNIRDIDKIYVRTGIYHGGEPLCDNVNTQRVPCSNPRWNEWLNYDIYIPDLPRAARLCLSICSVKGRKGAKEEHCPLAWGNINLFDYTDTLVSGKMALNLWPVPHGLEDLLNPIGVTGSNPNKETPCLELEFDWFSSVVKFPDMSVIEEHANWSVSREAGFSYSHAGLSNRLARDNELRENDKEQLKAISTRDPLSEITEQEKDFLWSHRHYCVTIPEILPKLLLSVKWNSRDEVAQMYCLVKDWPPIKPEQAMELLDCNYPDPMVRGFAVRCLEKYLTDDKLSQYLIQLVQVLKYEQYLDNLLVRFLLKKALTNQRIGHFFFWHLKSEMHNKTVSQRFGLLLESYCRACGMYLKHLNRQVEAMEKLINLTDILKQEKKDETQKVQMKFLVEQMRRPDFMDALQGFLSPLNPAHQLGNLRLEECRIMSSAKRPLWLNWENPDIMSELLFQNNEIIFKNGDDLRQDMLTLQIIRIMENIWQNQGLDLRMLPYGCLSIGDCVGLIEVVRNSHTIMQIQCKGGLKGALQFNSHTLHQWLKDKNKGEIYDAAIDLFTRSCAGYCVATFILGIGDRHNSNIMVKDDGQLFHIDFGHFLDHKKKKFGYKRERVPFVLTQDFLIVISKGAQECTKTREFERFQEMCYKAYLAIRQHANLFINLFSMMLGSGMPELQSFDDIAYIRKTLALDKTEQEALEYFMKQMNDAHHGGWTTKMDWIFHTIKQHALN", "chain of UniProt O60285 (whole entry, looked up)": "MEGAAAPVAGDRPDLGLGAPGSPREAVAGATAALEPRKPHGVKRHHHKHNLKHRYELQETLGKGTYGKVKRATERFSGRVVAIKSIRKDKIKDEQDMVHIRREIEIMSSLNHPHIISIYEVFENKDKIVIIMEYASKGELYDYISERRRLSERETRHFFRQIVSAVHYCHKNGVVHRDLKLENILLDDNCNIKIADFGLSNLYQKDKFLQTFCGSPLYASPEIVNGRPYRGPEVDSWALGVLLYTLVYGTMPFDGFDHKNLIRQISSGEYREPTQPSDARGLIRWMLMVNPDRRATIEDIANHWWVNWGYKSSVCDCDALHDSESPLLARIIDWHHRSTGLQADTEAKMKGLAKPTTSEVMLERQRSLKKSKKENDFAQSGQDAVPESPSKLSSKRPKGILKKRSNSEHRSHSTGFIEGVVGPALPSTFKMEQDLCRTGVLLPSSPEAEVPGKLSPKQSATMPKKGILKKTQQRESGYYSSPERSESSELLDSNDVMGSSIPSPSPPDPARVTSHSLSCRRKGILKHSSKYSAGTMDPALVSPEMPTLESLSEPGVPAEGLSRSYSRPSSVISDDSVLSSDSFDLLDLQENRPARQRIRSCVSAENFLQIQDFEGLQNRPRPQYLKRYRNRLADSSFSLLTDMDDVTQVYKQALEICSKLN", "chain of UniProt Q96BR1 (whole entry, looked up)": "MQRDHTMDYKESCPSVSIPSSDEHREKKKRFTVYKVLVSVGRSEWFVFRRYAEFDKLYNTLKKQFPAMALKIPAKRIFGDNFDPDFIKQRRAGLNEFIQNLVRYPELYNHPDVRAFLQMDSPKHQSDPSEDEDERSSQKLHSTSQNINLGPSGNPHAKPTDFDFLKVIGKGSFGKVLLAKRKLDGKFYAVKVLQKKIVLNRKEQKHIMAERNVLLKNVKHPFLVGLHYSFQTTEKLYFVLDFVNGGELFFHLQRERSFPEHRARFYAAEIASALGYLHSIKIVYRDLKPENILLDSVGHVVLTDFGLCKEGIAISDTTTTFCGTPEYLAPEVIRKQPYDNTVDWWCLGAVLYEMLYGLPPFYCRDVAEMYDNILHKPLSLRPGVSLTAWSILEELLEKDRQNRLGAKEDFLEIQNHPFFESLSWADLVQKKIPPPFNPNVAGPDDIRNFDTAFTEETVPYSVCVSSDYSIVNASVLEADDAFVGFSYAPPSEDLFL", "chain of UniProt Q8NI60 (whole entry, looked up)": "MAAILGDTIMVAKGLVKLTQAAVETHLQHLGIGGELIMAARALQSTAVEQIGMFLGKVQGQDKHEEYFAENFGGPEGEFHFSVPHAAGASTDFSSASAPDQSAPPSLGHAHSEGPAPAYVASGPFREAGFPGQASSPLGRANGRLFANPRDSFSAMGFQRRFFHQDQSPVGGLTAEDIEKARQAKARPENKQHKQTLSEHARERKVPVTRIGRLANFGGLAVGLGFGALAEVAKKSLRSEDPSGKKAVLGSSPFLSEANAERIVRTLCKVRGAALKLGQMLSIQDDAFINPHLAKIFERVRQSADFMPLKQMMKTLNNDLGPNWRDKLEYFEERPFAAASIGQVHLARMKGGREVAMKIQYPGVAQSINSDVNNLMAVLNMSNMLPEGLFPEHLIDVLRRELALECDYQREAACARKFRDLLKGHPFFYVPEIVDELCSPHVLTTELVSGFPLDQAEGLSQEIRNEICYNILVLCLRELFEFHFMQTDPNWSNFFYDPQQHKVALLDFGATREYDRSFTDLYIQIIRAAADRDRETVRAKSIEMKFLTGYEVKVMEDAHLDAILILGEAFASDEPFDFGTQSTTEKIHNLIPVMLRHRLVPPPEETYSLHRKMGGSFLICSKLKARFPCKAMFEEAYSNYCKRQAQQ"}
{"data": "Set 1", "SMILES": "Cn1cncc1[C@@](O)(COc1ccc(C#N)cc1-c1ccc(OC(F)(F)F)cc1)c1ccc(C#N)cc1", "technique": "competition with immobilised ligand", "concentration": "1 µM"}
{"target": "STK3 (Homo sapiens, UniProt Q13188)", "test": "cell-free assay", "remaining binding [%]": 95}
{"target": "EPHB1 (Homo sapiens, UniProt P54762)", "test": "cell-free assay", "remaining binding [%]": 100}
{"target": "SGK3 (Homo sapiens, UniProt Q96BR1)", "test": "cell-free assay", "remaining binding [%]": 100}
{"target": "Ribosomal protein S6 kinase alpha-4, C-terminal kinase domain (RPS6KA4, Homo sapiens, UniProt O75676)", "test": "cell-free assay", "remaining binding [%]": 93}
{"target": "NUAK1 (Homo sapiens, UniProt O60285)", "test": "cell-free assay", "remaining binding [%]": 100}
{"target": "PIK3CA (Homo sapiens, UniProt P42336, I800L)", "test": "cell-free assay", "remaining binding [%]": 84}
{"target": "MAP3K12 (Homo sapiens, UniProt Q12852)", "test": "cell-free assay", "remaining binding [%]": 100}
{"target": "CDKL3 (Homo sapiens, UniProt Q8IVW4)", "test": "binding", "remaining binding [%]": 81}
{"target": "KIT (Homo sapiens, UniProt P10721)", "test": "cell-free assay", "remaining binding [%]": 98}
{"target": "ACVRL1 (Homo sapiens, UniProt P37023)", "test": "binding", "remaining binding [%]": 100}
{"target": "COQ8A (Homo sapiens, UniProt Q8NI60)", "test": "cell-free assay", "remaining binding [%]": 100}
{"target": "CDK11B (Homo sapiens, UniProt P21127)", "test": "cell-free assay", "remaining binding [%]": 92}
{"target": "TLK2 (Homo sapiens, UniProt Q86UE8)", "test": "cell-free assay", "remaining binding [%]": 97}
{"target": "PIP5K1C (Homo sapiens, UniProt O60331)", "test": "cell-free assay", "remaining binding [%]": 100}
{"target": "PIK3CB (Homo sapiens, UniProt P42338)", "test": "cell-free assay", "remaining binding [%]": 75}
{"target": "KIT (Homo sapiens, UniProt P10721, T670I/V559D)", "test": "cell-free assay", "remaining binding [%]": 82}
{"target": "DYRK1A (Homo sapiens, UniProt Q13627)", "test": "cell-free assay", "remaining binding [%]": 99}
{"target": "MAP4K1 (Homo sapiens, UniProt Q92918)", "test": "cell-free assay", "remaining binding [%]": 100}
{"data": "Set 2", "target": "CCNA1, cyclin fold, Cln2 fusion (human)", "technique": "yeast growth competition, sequencing", "matrix": "yeast", "notes": "strong parent motif", "relative to": "not given", "reading": "higher = stronger binding", "parent": "viral docking peptide; YKVKRRLVFGADD; partner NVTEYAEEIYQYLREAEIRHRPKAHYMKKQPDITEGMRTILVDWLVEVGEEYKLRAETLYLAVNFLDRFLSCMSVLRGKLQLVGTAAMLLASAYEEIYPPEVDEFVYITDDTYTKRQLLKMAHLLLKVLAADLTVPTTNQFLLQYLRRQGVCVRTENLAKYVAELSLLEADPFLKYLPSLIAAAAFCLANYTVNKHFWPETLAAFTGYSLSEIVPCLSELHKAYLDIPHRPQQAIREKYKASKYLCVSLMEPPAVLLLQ"}
{"Change": "F9D", "normalised enrichment score": 0.613}
{"Change": "F9P", "normalised enrichment score": 0.294}
{"Change": "V3C", "normalised enrichment score": 1.23}
{"Change": "A11T", "normalised enrichment score": 1.81}
{"Change": "V8D", "normalised enrichment score": 2.1}
{"Change": "D12C", "normalised enrichment score": 1.1}
{"Change": "V3Y", "normalised enrichment score": 0.656}
{"Change": "K2L", "normalised enrichment score": 1.34}
{"data": "Set 3", "target": "HLA class I histocompatibility antigen, C alpha chain, allele C*04:01 (Homo sapiens, UniProt P10321)", "read-out": "peptide-MHC binding", "molecule type": "peptide", "concentration": "concentration not given"}
{"Sequence": "MRYFIGQPL", "binding": "inactive"}
{"Sequence": "SEMGANFKA", "binding": "inactive"}
{"Sequence": "RYNCKCCWF", "binding": "inactive"}
{"Sequence": "GTFEFTSFF", "binding": "inactive"}
{"Sequence": "MQIRGFVYF", "binding": "inactive"}
{"Sequence": "SERFINYAI", "binding": "inactive"}
{"Sequence": "YSLEYFQFV", "binding": "inactive"}
{"Sequence": "FVDVGVSAL", "binding": "inactive"}
{"data": "Further values, each from its own experiment", "CAMK2A": "Calcium/calmodulin-dependent protein kinase type II subunit alpha (CAMK2A, Homo sapiens, UniProt Q9UQM7)", "chain of UniProt Q9UQM7 (whole entry, looked up)": "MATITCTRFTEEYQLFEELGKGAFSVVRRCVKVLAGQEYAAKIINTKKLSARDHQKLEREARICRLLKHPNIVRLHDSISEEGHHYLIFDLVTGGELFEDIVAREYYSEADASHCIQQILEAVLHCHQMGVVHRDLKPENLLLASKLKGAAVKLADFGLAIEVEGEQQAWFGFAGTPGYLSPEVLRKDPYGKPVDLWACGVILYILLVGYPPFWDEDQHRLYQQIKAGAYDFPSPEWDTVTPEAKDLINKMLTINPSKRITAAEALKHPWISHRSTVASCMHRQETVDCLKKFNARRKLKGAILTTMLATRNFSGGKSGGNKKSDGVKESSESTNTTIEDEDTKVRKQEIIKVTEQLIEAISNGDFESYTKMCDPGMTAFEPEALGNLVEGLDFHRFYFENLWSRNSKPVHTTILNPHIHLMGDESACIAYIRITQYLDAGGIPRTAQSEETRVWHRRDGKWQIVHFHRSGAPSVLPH"}
{"Compound": "CC(=O)O[C@H]1C[C@]2(O)[C@@H]3CC[C@@H]4C[C@@H](O)CC[C@]4(C)[C@H]3CC[C@]2(C)[C@H]1c1ccc(=O)oc1", "tested on": "CAMK2A", "test": "enzyme activity, inhibitor", "conditions": "10 µM", "measurement": "inhibition", "result": "26%"}
{"Compound": "O=C1NC(=O)c2c1c1c3ccccc3n3c1c1c2c2ccccc2n1[C@H]1CC[C@@H]3O1", "tested on": "Cyclin-dependent kinase 5, with p35 (CDK5, Homo sapiens, UniProt Q00535)", "test": "enzyme activity, inhibitor", "conditions": "0.5 µM", "scale": "relative to: control", "measurement": "remaining activity", "result": "23.3%"}
{"Compound": "C[C@]12CC[C@H](OS(=O)(=O)O)CC1=CC[C@@H]1[C@@H]2CC[C@]2(C)C(=O)CC[C@@H]12", "tested on": "CAMK2A", "test": "enzyme activity, inhibitor", "conditions": "10 µM", "measurement": "inhibition", "result": "-17%"}
{"Compound": "O=C(O)CNC(=O)c1c(O)c2ccccc2n(Cc2ccccc2)c1=O", "tested on": "mouse MPNST tumor cells", "test": "high-content immunofluorescence imaging, item: nuclear SOX9", "conditions": "10 µM, 12 h, mean of 2 replicates", "scale": "relative to: DMSO control, higher = more nuclear SOX9", "measurement": "nuclear SOX9 intensity", "result": "105 % of DMSO"}
{"Compound": "CC(C)(C)c1cc(C=C(C#N)C#N)cc(Br)c1O", "tested on": "PAK4 (Homo sapiens, UniProt O96013)", "test": "enzyme activity, inhibitor", "conditions": "0.5 µM", "scale": "relative to: control", "measurement": "remaining activity", "result": "124%"}
{"Compound": "CC[C@@H](C)c1nc2cc(Nc3ccnc4ccc(S(=O)(=O)C(C)C)cc34)ccc2s1.Cl", "tested on": "L929 RIPK3-/- reexpressing RIPK3 K51A", "test": "CCK-8", "conditions": "12.5 µM, added: zVAD", "measurement": "survival", "result": "84.3% and 95.7% and 86.3% and 95% and 112%"}
{"Compound": "COc1ccc(CNC(=O)C=Cc2ccc3[nH]cc(CCN(C)C)c3c2)cc1", "tested on": "mouse MPNST tumor cells", "test": "high-content immunofluorescence imaging, item: nuclear SOX9", "conditions": "10 µM, 12 h, mean of 2 replicates", "scale": "relative to: DMSO control, higher = more nuclear SOX9", "measurement": "nuclear SOX9 intensity", "result": "116 % of DMSO"}
{"note": "Repeated from above (set 3):"}
{"Sequence": "SERFINYAI", "binding": "inactive"}
{"Sequence": "YSLEYFQFV", "binding": "inactive"}
{"Sequence": "GTFEFTSFF", "binding": "inactive"}
